# Published values from different studies.
# Numbered parts are unrelated; each lists some results of a single study. Changes are numbered by the printed parent chain.

# Set 1 — method: RNA Bind-n-Seq; molecule type: RNA; sample: in vitro; concentration: not given; relative to: input RNA pool; direction: higher = stronger binding
# Target: RING finger protein unkempt homolog, zinc fingers 1-6, GST-SBP tag (UNK, Homo sapiens, UniProt Q9C0B0, residues 30-357)
# Chain of UniProt Q9C0B0 (30-357, looked up): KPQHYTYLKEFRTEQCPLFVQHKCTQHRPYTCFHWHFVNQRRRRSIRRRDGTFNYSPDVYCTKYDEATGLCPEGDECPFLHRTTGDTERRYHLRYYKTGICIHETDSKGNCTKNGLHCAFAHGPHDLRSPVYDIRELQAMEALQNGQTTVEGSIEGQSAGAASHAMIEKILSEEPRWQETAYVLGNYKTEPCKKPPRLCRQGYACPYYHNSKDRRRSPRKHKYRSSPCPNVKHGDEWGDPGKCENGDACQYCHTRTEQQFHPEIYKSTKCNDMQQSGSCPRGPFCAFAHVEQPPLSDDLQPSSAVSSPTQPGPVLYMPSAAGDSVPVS
# Setting: RNA with constant flanks, human and mouse sites, ends assumed
Oligonucleotide,bound/input enrichment [ratio]
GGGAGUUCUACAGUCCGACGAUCCAGGGAGUGGGUGACAUAGAGCAUUCUAUGCCUUUGACAUUGUCAUAGGAUAAGCUGUGUUAGCACUUCCUCAGGAAAUGAGAUUGAUUUUUACAAUAGCCAAUAACAUUUGCACUUUAUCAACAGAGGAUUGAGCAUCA,0.516
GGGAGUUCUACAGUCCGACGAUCGGUGAAGGUGGGAGGGGAGGGAGGGAAGAACUAAGAGGGAAACUGAAAAAUGAAUUUAUCUUUCUUUAAAUGGAAGUCAGUUUGGUGGUUCAUGGCACCUAGUGUGAACAUCAGGGUGAGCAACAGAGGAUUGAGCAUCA,3.1
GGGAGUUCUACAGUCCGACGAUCUUCCGCCACAUGAGGAACCAUGCCUAUGAGCCACUCGCCAGCUUCCUAGACUUCAUUACUUACAGUUACAUGAUCGACAACGUGAUCCUGCUCAUCACAGGCACGCUGCACCAGCGCUCCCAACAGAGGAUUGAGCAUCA,0.375
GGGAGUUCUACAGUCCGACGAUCAUCUCCGCUAUGAACAAGGUGGCUGAAGUUUUACAAGUACCUCCAAUGAGAGUAUAUGAAGUAGCAACUUUUUAUACAAUGUAUAAUCGAAAGCCAGUUGGGAAGUACCAUAUCCAGGUCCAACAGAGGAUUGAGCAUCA,0.103
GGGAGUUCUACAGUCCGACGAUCGCUCAGGCUUUCCCAGUGAGCGAGGCCGGCGCUUUAUAACAGCAGCCUGGGCGGCUCCACCGGCUGUUUUUUCGGCUCCUCGGGUUUGUGUCUGCAGGUGCCAUCCGCGAAGAUGCAGCUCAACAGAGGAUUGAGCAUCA,0.17
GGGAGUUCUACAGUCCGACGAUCCUGAAAGUUUUGGCCACAGCUUUUGAUACAACAUUGGGAGGCAGAAAAUUUGAUGAGGUGUUGGUAAAUCACUUCUGUGAAGAAUUUGGAAAGAAAUACAAGCUAGACAUAAAAUCUAAACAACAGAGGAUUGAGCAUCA,0.538
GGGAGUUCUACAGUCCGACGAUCCCUUAAGCUUCUCAGAGCAUUGCCACCACACCCAACUCAGAAUGUGUACUUAAGAAUGCAAAUAGAAUCUUAACCAAACAGUAUCUACAUCAACAUUUUAAUGUGAAACCUAACAGCAAACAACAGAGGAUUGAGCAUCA,0.429
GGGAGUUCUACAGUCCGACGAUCUUGAAGAAAUCAGCAUUUCUAACAGAAGUGAGCCAAAAGGAAAAUUACGCCGGAGCAAAGUUCAGUGACCCACCUUCCCCUAGUGUCCUCCCAAAGCCUCCGAGUCACUGGAUGGGAAGUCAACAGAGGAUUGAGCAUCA,0.175
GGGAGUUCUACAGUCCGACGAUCUUAAACUAAAUGGAACCAUGUGCUAAUUUUACAGUGACUGACCUGUACUGAUUACCACUGUAGUUUGGUAUUUCCCUUUACUUUGGUGGCCUGCUUCCCUCAUGCCCUGGAGUACAGCUCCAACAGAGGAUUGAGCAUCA,0.138

# Set 2 — method: protein binding microarray; molecule type: double-stranded DNA, one strand shown; sample: in vitro; concentration: not given; relative to: not given; direction: higher = stronger binding
# Target: Histone acetyltransferase KAT6A, winged helix 1, GST fusion (KAT6A, Homo sapiens, UniProt Q92794, residues 1-85)
# Setting: 8-mer, flanks averaged, mean of 2 arrays, mostly near background
# Residues (chain): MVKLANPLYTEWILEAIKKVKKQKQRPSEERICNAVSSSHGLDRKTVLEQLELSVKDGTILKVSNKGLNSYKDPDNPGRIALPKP
Oligonucleotide,E-score
AGACCTAT,-0.0777
CAACGCAA,0.0599
ACTCTAAA,-0.172
ACCAGCGG,0.282
CCATCCGA,-0.178
GACACCAA,-0.134
ACAGTTCA,-0.225
AACGGATG,-0.0182

# Set 3 — method: DHFR PCA, deep sequencing; sample: yeast; together with: (+)-ABA 0.11 µM; relative to: wild-type fitted maximum; direction: higher = stronger binding
# Target: ABI1, truncated, D143A, DHFR fusion (Arabidopsis thaliana)
# Setting: methotrexate growth selection, single substitutions
# Parent: PYL1, truncated, DHFR fusion (Arabidopsis thaliana); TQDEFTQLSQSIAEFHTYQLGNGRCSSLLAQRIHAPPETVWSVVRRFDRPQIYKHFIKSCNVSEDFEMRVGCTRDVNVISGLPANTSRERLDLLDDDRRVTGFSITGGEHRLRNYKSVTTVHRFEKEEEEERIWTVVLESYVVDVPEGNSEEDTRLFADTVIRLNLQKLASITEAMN; partner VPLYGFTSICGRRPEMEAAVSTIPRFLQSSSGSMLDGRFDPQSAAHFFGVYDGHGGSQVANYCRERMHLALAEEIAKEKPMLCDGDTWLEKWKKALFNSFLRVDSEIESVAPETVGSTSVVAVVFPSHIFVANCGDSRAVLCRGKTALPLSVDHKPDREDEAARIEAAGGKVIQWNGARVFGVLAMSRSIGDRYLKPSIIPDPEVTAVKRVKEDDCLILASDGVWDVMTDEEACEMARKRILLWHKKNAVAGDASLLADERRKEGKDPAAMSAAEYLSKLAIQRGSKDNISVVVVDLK
Variant,relative binding score
F56V,-2.39%
E147Q,15.4%
G23S,5.94%
D96V,4.86%
W41E,-8.99%
V145W,-10.6%
C72M,35.8%

# Single results of other studies
Molecule,target,assay,test system,conditions,scale,quantity,result
"PhoQ, residues 284 288 289 292 302 303 TAVSDG","PhoP, residues 12 14 15 18 19 MHTVL (Escherichia coli, UniProt P23836)","Sort-seq, refers to: YFP reporter",E. coli,"PhoQ-PhoP variant library, together with: 10 µM Mg2+","relative to: high Mg2+ state, higher = stronger signaling",fold induction,13

# For quick reference, copied from above (set 2):
Oligonucleotide,E-score
ACCAGCGG,0.282
CCATCCGA,-0.178
GACACCAA,-0.134
ACAGTTCA,-0.225
